{"data": "Results from different studies", "cell line": "HT-29", "note": "Lines come from different studies, so protocols differ. ± gives the spread as reported."}
{"SMILES": "COc1cc(OC)cc(C2=C3c4ccccc4C(c4ccc(NC(=S)NCCOCCOCCOCCC(=O)N[C@@H](CC(C)C)C(=O)N[C@@H](C)C(=O)N[C@@H](CCCNC(=N)N)C(=O)N[C@@H](CC(C)C)C(=O)N[C@@H](CC(C)C)C(=O)N[C@H](C(N)=O)[C@@H](C)O)cc4)=[N+]3[B-](F)(F)n3c2c2ccccc2c3-c2ccc(NC(=S)NCCNC(=O)CCCC[C@@H]3SC[C@@H]4NC(=O)N[C@@H]43)cc2)c1", "setting": "200 µM, dark", "measurement": "viability", "result": "~40%"}
{"SMILES": "Cc1cc(O)cc(-c2nc(Nc3cc(C(F)(F)F)cc(C(F)(F)F)c3)ncc2-c2ccnc(Cl)c2)c1", "test": "DNA flow cytometry", "setting": "10 µM, 48 h", "measurement": "cells in S phase", "result": "22 ± 1.2%"}
{"SMILES": "COC(=O)C1CN1S(=O)(=O)c1ccccc1 (stereo not shown)", "test": "cell growth or viability, SRB", "setting": "72 h", "measurement": "IC50", "result": "30.2 µg/mL"}
{"SMILES": "N=C(N)NCCC[C@H](NC(=O)[C@H](Cc1c[nH]c2ccccc12)NC(=O)[C@H](CCC(N)=O)NC(=O)[C@H](Cc1c[nH]c2ccccc12)NC(=O)[C@H](CCCN)NC(=O)[C@H](Cc1c[nH]c2ccccc12)NC(=O)[C@H](CCC(N)=O)NC(=O)[C@H](Cc1c[nH]c2ccccc12)NC(=O)[C@@H](N)CCCNC(=N)N)C(N)=O", "test": "cell growth or viability, MTT", "measurement": "IC50", "result": "> 138 µM"}
{"SMILES": "O=C(O)[c-]1cccc1.O=C(Oc1ccc(-n2cccc2)cc1)[c-]1cccc1.[Fe+2]", "test": "cell growth or viability, MTT", "measurement": "IC50", "result": "121 µM"}
{"SMILES": "N=C(N)NCCC[C@H](NC(=O)[C@H](Cc1c[nH]c2ccccc12)NC(=O)[C@H](CCC(N)=O)NC(=O)[C@H](Cc1c[nH]c2ccccc12)NC(=O)[C@H](CCCNC(=N)N)NC(=O)[C@H](Cc1c[nH]c2ccccc12)NC(=O)[C@H](CCC(N)=O)NC(=O)[C@H](Cc1c[nH]c2ccccc12)NC(=O)[C@H](CCCNC(=N)N)NC(=O)CCCCCNC(=O)CCCC[C@@H]1SC[C@@H]2NC(=O)N[C@@H]21)C(N)=O", "test": "cell growth or viability, MTT", "measurement": "IC50", "result": "> 110 µM"}
{"SMILES": "O=C(CN1C(=O)S/C(=C\\c2ccccc2)C1=O)Nc1ccc(C(=O)Nc2ccc(F)cc2)cc1", "test": "MTT", "scale": "baseline: IC50 Vero over IC50 HT-29", "measurement": "selectivity index", "result": 15.2}
{"SMILES": "CC/C=C\\C/C=C\\C/C=C\\C/C=C\\C/C=C\\C/C=C\\CCC(=O)Nc1ccn(C2OC(CO)C(O)C2(F)F)c(=O)n1 (stereo not shown)", "test": "NCI60 screen", "measurement": "CC50", "result": "45.1 µM"}
{"SMILES": "COc1ccccc1/C=C1\\SC(=O)N(CC(=O)Nc2ccc(C(=O)Nc3ccc([N+](=O)[O-])cc3)cc2)C1=O", "test": "MTT", "scale": "baseline: IC50 Vero over IC50 HT-29", "measurement": "selectivity index", "result": 3.79}
{"SMILES": "CC1=CCC23OC2(C)CCC2C(C[N+](C)(C)C)C(=O)OC2C13.[I-] (stereo not shown)", "test": "cell growth or viability, SRB", "setting": "8.3 µM", "measurement": "inhibition", "result": "54.9%"}
{"note": "Some of these lines once more:"}
{"SMILES": "COc1ccccc1/C=C1\\SC(=O)N(CC(=O)Nc2ccc(C(=O)Nc3ccc([N+](=O)[O-])cc3)cc2)C1=O", "test": "MTT", "scale": "baseline: IC50 Vero over IC50 HT-29", "measurement": "selectivity index", "result": 3.79}
